Assay results of several laboratories.
Protocols differ between the studies behind these lines. “And” joins repeats or separate records; there may be more than shown. Numbers after ± are the reported error.
Chain of UniProt Q13011 (whole entry, looked up): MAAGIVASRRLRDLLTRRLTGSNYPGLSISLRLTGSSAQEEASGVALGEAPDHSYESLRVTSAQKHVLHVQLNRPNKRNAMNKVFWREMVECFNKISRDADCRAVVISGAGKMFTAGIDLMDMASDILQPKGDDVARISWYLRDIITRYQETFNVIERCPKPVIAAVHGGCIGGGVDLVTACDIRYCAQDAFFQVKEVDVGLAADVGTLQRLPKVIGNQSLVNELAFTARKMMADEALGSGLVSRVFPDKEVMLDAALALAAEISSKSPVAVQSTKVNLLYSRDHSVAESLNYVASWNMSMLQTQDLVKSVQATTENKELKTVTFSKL

The log K(PDMS-water) of `c1ccc2c(c1)ccc1c3ccccc3ccc21` is reported as 4.72 ± 0.03 (fresh water; 12 (unit not given), 20 °C).
For `CN1CC[C@@H](c2c(O)cc(O)c3c(=O)cc(-c4ccc(C(F)(F)F)cc4Cl)oc23)[C@@H]1CO`, “adverse event incidence” read 0% (refers to: Nausea; relapsed or refractory haematological malignancies; oral, dose not given, grade ≥3).
With `OC(CCN1CCCCC1)(c1ccccc1)C1CCCCC1` (stereo not shown) the IC50 was 12.6 µM (Plasmodium falciparum; D10).
With `CC(C)C[C@H](NC(=O)C[C@H](O)[C@H](CC(C)C)NC(=O)[C@H](Cc1c[nH]cn1)NC(=O)CNC(=O)[C@@H](NC(=O)[C@H](C)NC(=O)[C@H](Cc1c[nH]c2ccccc12)NC(=O)[C@H](CCC(N)=O)NC(=O)[C@@H](Cc1ccccc1)NC(=O)CCNC(=O)CCSc1nnc(NCCC(=O)NCCC(=O)NCCCC[C@H](NC(=O)N[C@@H](CCC(=O)O)C(=O)O)C(=O)O)c2c1CCC1C(CC2)C1COC(=O)NCCNC(=O)CC[C@H](C(=O)O)N1CCN(CC(=O)O)CCN(CC(=O)O)CC1)C(C)C)C(N)=O` (stereo partly shown) [gallium-68 labelled] the tissue uptake was 0.11 %ID/g (athymic NMRI nude mouse, stomach; intravenous, 533 pmol, 2 h).
`COc1c(OCCCN2CCOCC2)ccc2c1N=C(NC(=O)c1cnc(N)nc1)N1CCN=C21` gave a HbA1c of 5.9 ± 0.5% (human, non-diabetic, normal baseline HbA1c; concentration not given, after treatment).
`COc1ccnc(C(=O)N[C@H]2COC(=O)[C@H](Cc3ccccc3)[C@@H](OC(=O)C(C)C)[C@H](C)OC2=O)c1OCOC(=O)C(C)C` has a KFoc of 58700 mL/g (soil adsorption; soil; pH 6.9, organic carbon 0.8 %).
For `CC(=O)N[C@@H](CC(N)=O)C(=O)N[C@@H](CCCNC(=N)N)C(=O)N[C@@H](CC(C)C)C(=O)N[C@H]1CSSC[C@@H](C(=O)N[C@H](C(N)=O)[C@@H](C)O)NC(=O)[C@H](CCCNC(=N)N)NC(=O)[C@H](Cc2c[nH]cn2)NC(=O)[C@H](C)NC(=O)CNC(=O)[C@H](Cc2c[nH]c3ccccc23)NC(=O)[C@H](CC(=O)O)NC(=O)[C@H](CCC(N)=O)NC(=O)[C@H](Cc2c[nH]c3ccccc23)NC(=O)[C@H](C(C)C)NC1=O`, “log retention factor” read -0.267 (isocratic RP-HPLC, C18; 32% acetonitrile, phosphate pH 7.4, 1% TFA; 25 °C).
Under “participants with adverse event”, `COc1ccc(C[C@@H]2NC(=O)[C@H]([C@@H](C)O)NC(=O)[C@@H]3[C@@H]4CCN3C(=O)[C@@H]3Cc5cn(c6ccc(F)cc56)CCCCCCN(Cc5ccc(cc5)CCNC(=O)[C@]5(C)CCCN5C2=O)C(=O)CCC(=O)N[C@@H](C)C(=O)N[C@H](CNC(=O)CCCCC[N+](C)(C)C)C(=O)N[C@@H](Cc2cccc(c2)CNC(=O)CO4)C(=O)N3)cc1` is recorded as 3.2% (refers to: Nausea; humans; concentration not given, Study-003).
`O=C1Nc2cc3[nH]nc(-c4ccncc4)c3cc2CN1Cc1ccccc1` — result for “patients with diarrhoea”: 0% (CTCAE v4.03; advanced solid tumour patients; intravenous, 0.45 mg/kg, schedules 1/2).
For `CN[C@H]1CC[C@@H](c2ccc(Cl)c(Cl)c2)c2ccccc21`, “elimination rate constant” read 9.42e-05 s⁻¹ (CD-1 mouse, male, plasma; intraperitoneal, 1 mg/kg).
For `N=C(N)NCCNC(=O)C1(Nc2ccccc2)CCN(Cc2ccccc2)CC1`, “unchanged urinary recovery” read 1.6 ± 0.5% (Sprague-Dawley rat, female, urine; intravenous, 2.5 mg/kg, time not given).
`c1cc2ccc3cccc4ccc(c1)c2c34`: “literature range of log K” 4.7 to 5.25 log units (polyethylene-water partitioning; PAH compilation).
`COc1cccc2c1CCCC2CCCN1CCN(C2CCCCC2)CC1` (stereo not shown) has an AUC(0-t) of 4.48 ng·h/mL (CD-1 mouse, male, plasma; intraperitoneal, 0.3 mg/kg).
`CC(C)(C)[C@]1(O)CCN2C[C@H]3c4ccccc4CCc4cccc(c43)[C@@H]2C1` gave an IC50 of 5.01 µM (Plasmodium falciparum; 7G8).
`O=S(=O)(Nc1ccccc1)c1ccc(NC(=S)Nc2ccccc2)cc1` — result for “blood chemistry level”: 0.2 mg/dL (refers to: CREA; male mouse, blood; oral, 5 mg/kg daily, 14 days).
`CO[C@H]1C[C@@H]2CC[C@@H](C)[C@@](O)(O2)C(=O)C(=O)N2CCCC[C@H]2C(=O)O[C@H]([C@H](C)C[C@@H]2CC[C@@H](OC(=O)NCCOCCOCCOCCOCCOCCOCCOCCOCCC(=O)N3CCc4cc(Cn5nc(-c6ccc7oc(N)nc7c6)c6c(N)ncnc65)ccc4C3)[C@H](OC)C2)C[C@@H](O)[C@H](C)/C=C(\C)[C@@H](O)[C@@H](OC)C(=O)[C@H](C)C[C@H](C)/C=C/C=C/C=C/1C` has a TRAE incidence of 0% (phase 1 dose escalation, refers to: diarrhoea; advanced solid tumour patients; intravenous, 6 mg weekly, any grade).
`Clc1ccc(Cl)c(-c2ccccc2Cl)c1` has a log K(PDMS-water) of 4.97 ± 0.05 (fresh water; 20 °C).
For `Cn1cncc1-c1c(F)cncc1NC(=O)c1c(N)nn2cc(F)cnc12`, “patients grade ≥3 creatinine increase” read 0% (human patients; oral, 180 mg once daily, 2 weeks on 1 week off).
`CC(C)C[C@H](NC(=O)[C@H](CCCCN)NC(=O)OCC1c2ccccc2-c2ccccc21)C(=O)N[C@H](C(=O)N[C@@H](Cc1ccccc1)C(=O)N[C@@H](Cc1ccccc1)C(=O)N[C@@H](CCCCN)C(=O)NCC(=O)N[C@@H](Cc1ccccc1)C(=O)N[C@@H](C)C(=O)N[C@@H](Cc1c[nH]c2ccccc12)C(=O)N[C@@H](CC(N)=O)C(=O)N[C@H](C(=O)N[C@H]1CSSC[C@@H](C(=O)N[C@@H](Cc2c[nH]cn2)C(=O)N[C@@H](CCCNC(=N)N)C(=O)N[C@@H](CCCNC(=N)N)C(=O)N[C@@H](C)C(=O)N[C@@H](CC(N)=O)C(N)=O)NC(=O)[C@H](C(C)C)NC(=O)[C@H](CCCNC(=N)N)NC(=O)[C@H](C(C)C)NC(=O)CNC(=O)[C@H](CC(N)=O)NC(=O)[C@H](CCCNC(=N)N)NC(=O)[C@H](Cc2ccc(O)cc2)NC(=O)[C@H](C(C)C)NC1=O)C(C)C)C(C)C` gave a haematocrit of 41 ± 0.99% (ICR mouse, blood; intramammary, 5 mg/kg, day 5, 3 d dosing).
With `CC[C@H](C)[C@H](NC(=O)[C@H](Cc1ccccc1)NC(=O)[C@H](CCC(=O)O)NC(=O)[C@H](CCCNC(=N)N)NC(=O)[C@H](C)NC(=O)[C@H](C)NC(=O)[C@H](CCC(N)=O)NC(=O)[C@H](CCC(=O)O)NC(=O)[C@H](CCC(=O)O)NC(=O)[C@H](CC(C)C)NC(=O)[C@H](Cc1ccc(O)cc1)NC(=O)[C@H](CO)NC(=O)[C@H](CO)NC(=O)[C@@H](NC(=O)[C@H](CC(=O)O)NC(=O)[C@H](CO)NC(=O)[C@@H](NC(=O)[C@H](Cc1ccccc1)NC(=O)[C@@H](NC(=O)CNC(=O)[C@H](CCC(=O)O)NC(=O)[C@H](C)NC(=O)CCc1cnc[nH]1)[C@@H](C)O)[C@@H](C)O)C(C)C)C(=O)N[C@@H](C)C(=O)N[C@@H](Cc1c[nH]c2ccccc12)C(=O)N[C@@H](CC(C)C)C(=O)N[C@H](C(=O)N[C@@H](CCCNC(=N)N)C(=O)NCC(=O)N[C@@H](CCCNC(=N)N)C(=O)N[C@@H](CCCCNC(=O)COCCOCCNC(=O)COCCOCCNC(=O)CC[C@H](NC(=O)CCCCCCCCCCCCCCCCC(=O)O)C(=O)O)C(=O)NCC(=O)NCC(=O)N[C@@H](CO)C(=O)N[C@@H](CCSC)C(=O)N[C@H](C(=O)N[C@@H](CCCCNc1c(NCCCCCN(O)C(=O)CCC(=O)NCCCCCN(O)C(=O)CCC(=O)NCCCCCN(O)C(C)=O)c(=O)c1=O)C(=O)O)C(C)C)C(C)C` [zirconium-89 labelled] the tissue uptake was 0.115 %ID/g and 0.105 %ID/g and 0.145 %ID/g (ex vivo gamma counting; male Sprague-Dawley rats, intestine; intravenous, 5 MBq (1 nmol), 24 h).
`CCc1ccc(CC/C=C/c2ccc3c(c2)C(=O)CC3)cc1` gave a Glucose of 5.97 mM (Sprague-Dawley rat, female; oral, 120 mg/kg/day, 14 days).
The concentration of `CCC[C@H]1CC[C@H](c2ccc(-c3ccc(F)cc3)cc2)CC1` is reported as 0.91 ng/mL (refers to: compound; human pregnant women, male fetuses, cord serum; dose not given, paired maternal-cord samples, mean).
`Clc1ccc(-c2ccccc2)cc1` has a chloride of 76 ± 22 mmol/L (Sprague-Dawley rats, female, serum; inhalation, 23 µg/rat, 2 h after exposure).
`COc1cc2c(Oc3ccc4[nH]c(C)cc4c3F)ccnc2cc1OCC1(N)CC1` — result for “grade 1 or 2 Hyperthyroidism”: 0% (paediatric recurrent refractory sarcoma; 8 mg).
With `COc1ncccc1-c1cnn2ccc(N3CCN(C(=O)OC(C)C)CC3)nc12` the drug concentration was 15 µM (mouse nerve ligation model, brain; oral, 30 mg/kg, 180 min after last dose, repeat dosing day 1).
For `Clc1cc2c(cc1Cl)Oc1cc(Cl)c(Cl)cc1O2`, “relative gonadal white adipose weight” read 2 fold (female Sprague-Dawley rat; 10 µg/kg, every 28 d for 4 d; baseline: vehicle).
`NC(=O)[C@H]1CCN(c2ncnc(N)c2F)C[C@@H]1N1CCC[C@@H](Nc2cc(Cl)cc(C(F)(F)F)c2)C1=O` — result for “grade ≥3 leukopenia”: 33% (B-cell malignancy patients; oral, 20.5 mg twice daily, dose).
For `O=C(Nc1ccccc1)C1CCN(C(=O)Oc2cccnc2)CC1`, “adverse event Dizziness” read 76.9% (healthy women; oral, 100 mg, 9 days).
With `C[C@H]1CN(c2n[nH]c3nc(N[C@H]4CC[C@H](NS(=O)(=O)CCC(F)(F)F)CC4)ncc23)CCO1` the IC50 was at least 20 µM (Delta(3,5)-Delta(2,4)-dienoyl-CoA isomerase, mitochondrial (Homo sapiens, UniProt Q13011); biochemical).
`CCOc1cc(Oc2ccc(C(F)(F)F)cc2Cl)ccc1[N+](=O)[O-]` — result for “body weight gain”: 66.1% (rat male; 15 mg/kg, 8 days).
`CC(C)C[C@@H]1NC(=O)CNC(=O)[C@H](CC(N)=O)NC(=O)[C@H](CCCNC(=N)N)NC(=O)[C@H]([C@@H](C)O)NC(=O)[C@@H]2CSSC[C@@H]3NC(=O)[C@H]([C@@H](C)O)NC(=O)CNC(=O)CNC(=O)[C@H](C(C)C)NC(=O)[C@@H]4CSSC[C@H](NC(=O)[C@H](CCCCN)NC(=O)[C@H](CSSC[C@H](NC(=O)[C@H](C(C)C)NC(=O)[C@@H]5CCCN5C1=O)C(=O)NCC(=O)N[C@@H](CCC(=O)O)C(=O)N[C@@H]([C@@H](C)O)C(=O)N4)NC(=O)CNC(=O)[C@@H]1CCCN1C(=O)[C@H]([C@@H](C)O)NC(=O)[C@H](CC(N)=O)NC3=O)C(=O)N[C@@H](CO)C(=O)N[C@@H](Cc1c[nH]c3ccccc13)C(=O)N1CCC[C@H]1C(=O)N[C@@H](C(C)C)C(=O)N2` has a remaining peptide of 99.1 ± 0.3% (HPLC; water; 180 µM, 14 days, 37 °C, deamidation stability).

A few entries again:
`NC(=O)[C@H]1CCN(c2ncnc(N)c2F)C[C@@H]1N1CCC[C@@H](Nc2cc(Cl)cc(C(F)(F)F)c2)C1=O` — result for “grade ≥3 leukopenia”: 33% (B-cell malignancy patients; oral, 20.5 mg twice daily, dose).
For `O=C(Nc1ccccc1)C1CCN(C(=O)Oc2cccnc2)CC1`, “adverse event Dizziness” read 76.9% (healthy women; oral, 100 mg, 9 days).
With `C[C@H]1CN(c2n[nH]c3nc(N[C@H]4CC[C@H](NS(=O)(=O)CCC(F)(F)F)CC4)ncc23)CCO1` the IC50 was at least 20 µM (Delta(3,5)-Delta(2,4)-dienoyl-CoA isomerase, mitochondrial (Homo sapiens, UniProt Q13011); biochemical).
`CCOc1cc(Oc2ccc(C(F)(F)F)cc2Cl)ccc1[N+](=O)[O-]` — result for “body weight gain”: 66.1% (rat male; 15 mg/kg, 8 days).
